Published values pooled from the literature.
Each numbered part is a random draw from the data of one study; scales do not carry over between parts.
Chain of UniProt Q96SB4 (whole entry, looked up): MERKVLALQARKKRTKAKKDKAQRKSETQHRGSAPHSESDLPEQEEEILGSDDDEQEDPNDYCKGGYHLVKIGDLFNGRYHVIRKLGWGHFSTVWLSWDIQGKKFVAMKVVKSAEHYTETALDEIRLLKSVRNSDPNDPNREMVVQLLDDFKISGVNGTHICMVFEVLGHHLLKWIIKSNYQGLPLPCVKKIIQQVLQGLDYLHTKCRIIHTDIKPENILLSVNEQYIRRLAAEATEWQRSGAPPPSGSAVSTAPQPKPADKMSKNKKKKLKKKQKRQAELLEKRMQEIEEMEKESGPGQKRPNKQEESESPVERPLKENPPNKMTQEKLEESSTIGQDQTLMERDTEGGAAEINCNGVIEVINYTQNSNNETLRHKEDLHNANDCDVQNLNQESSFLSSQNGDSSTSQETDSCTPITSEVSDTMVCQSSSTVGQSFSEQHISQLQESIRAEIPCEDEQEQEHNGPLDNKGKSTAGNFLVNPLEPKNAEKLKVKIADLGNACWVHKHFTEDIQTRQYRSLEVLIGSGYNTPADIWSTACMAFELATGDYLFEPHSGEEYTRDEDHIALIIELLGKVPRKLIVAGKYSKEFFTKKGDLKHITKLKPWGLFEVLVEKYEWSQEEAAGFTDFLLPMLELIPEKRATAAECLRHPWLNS
Chain of UniProt O94806 (whole entry, looked up): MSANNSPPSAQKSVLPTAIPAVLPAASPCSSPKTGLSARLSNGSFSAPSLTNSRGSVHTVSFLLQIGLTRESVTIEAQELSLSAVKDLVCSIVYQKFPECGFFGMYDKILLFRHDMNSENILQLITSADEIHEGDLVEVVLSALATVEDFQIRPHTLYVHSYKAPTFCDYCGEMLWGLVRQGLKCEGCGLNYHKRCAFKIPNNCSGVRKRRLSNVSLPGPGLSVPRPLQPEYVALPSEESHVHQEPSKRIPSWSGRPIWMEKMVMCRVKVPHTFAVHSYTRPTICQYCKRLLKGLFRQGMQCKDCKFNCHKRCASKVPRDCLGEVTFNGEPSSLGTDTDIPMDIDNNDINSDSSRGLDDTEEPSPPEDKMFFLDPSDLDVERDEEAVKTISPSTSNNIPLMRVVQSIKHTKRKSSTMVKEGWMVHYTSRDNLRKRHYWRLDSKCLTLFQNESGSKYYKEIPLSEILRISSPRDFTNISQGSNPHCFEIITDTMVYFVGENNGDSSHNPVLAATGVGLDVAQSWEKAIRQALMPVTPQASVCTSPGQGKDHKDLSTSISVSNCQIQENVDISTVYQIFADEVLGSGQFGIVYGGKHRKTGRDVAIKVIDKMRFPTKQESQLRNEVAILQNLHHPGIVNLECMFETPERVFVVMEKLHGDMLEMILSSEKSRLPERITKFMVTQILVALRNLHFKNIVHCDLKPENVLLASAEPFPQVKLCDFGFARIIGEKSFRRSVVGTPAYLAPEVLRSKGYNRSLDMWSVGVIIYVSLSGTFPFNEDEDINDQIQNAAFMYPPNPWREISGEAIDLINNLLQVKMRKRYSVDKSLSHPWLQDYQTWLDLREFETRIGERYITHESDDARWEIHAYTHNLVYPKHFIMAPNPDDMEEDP
Chain of UniProt P42336 (whole entry, unmodified, looked up): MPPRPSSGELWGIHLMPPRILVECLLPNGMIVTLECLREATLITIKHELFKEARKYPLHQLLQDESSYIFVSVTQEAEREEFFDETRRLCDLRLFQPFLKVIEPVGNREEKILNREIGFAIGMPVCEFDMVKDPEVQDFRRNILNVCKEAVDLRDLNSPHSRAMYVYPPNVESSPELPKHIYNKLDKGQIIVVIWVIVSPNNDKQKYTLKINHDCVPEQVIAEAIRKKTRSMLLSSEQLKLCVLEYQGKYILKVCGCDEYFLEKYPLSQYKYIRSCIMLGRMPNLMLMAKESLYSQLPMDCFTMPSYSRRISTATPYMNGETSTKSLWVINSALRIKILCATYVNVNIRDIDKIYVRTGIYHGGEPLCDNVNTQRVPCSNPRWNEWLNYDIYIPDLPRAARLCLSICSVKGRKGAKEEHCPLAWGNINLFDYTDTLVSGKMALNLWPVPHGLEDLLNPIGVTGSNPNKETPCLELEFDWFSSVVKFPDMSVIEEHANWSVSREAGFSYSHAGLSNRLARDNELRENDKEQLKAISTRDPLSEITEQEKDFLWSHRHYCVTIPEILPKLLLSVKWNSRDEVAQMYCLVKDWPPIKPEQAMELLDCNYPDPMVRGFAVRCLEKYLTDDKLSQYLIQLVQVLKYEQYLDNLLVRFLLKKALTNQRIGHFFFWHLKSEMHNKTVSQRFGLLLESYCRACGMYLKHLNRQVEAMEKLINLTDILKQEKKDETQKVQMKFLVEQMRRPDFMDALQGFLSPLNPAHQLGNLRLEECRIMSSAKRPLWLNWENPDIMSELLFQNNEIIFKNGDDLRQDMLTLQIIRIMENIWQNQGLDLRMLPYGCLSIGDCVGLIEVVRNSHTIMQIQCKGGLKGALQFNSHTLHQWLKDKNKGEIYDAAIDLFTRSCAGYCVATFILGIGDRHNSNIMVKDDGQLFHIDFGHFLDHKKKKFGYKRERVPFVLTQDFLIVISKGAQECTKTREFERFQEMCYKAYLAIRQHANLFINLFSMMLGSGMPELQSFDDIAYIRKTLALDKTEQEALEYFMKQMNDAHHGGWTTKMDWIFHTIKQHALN
Chain of UniProt Q9UK32 (whole entry, looked up): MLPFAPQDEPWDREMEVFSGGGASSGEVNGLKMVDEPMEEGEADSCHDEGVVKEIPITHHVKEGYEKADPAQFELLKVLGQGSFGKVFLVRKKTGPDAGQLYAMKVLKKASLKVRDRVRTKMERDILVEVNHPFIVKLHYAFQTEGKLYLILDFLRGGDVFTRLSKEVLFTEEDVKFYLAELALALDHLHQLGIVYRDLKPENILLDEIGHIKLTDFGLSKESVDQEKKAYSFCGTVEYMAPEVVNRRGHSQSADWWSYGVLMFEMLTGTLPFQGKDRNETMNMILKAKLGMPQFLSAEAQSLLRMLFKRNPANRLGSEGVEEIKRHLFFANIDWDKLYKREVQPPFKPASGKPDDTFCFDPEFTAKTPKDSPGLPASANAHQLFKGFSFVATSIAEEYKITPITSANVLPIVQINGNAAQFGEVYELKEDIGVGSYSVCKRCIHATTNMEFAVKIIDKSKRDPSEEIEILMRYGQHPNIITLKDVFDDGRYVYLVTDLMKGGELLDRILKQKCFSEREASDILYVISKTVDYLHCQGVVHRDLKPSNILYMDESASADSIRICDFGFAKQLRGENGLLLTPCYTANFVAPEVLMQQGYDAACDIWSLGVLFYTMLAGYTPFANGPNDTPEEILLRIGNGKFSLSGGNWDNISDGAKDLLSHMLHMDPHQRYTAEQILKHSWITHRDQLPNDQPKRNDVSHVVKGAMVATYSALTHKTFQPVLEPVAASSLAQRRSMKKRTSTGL

Sample 1 — read-out: cell-free assay; tested at: 1 µM; quantity: remaining signal
SMILES: C[C@H]1CC[C@H](n2c3cnccc3c3cnc(Nc4ccc5c(n4)CCN(C(=O)CO)C5)nc32)CC1
MET (Homo sapiens, UniProt P08581, M1250T): 78%
PIK3CA (Homo sapiens, UniProt P42336, E545A): 100%
SRPK1 (Homo sapiens, UniProt Q96SB4): 30%

Sample 2 — read-out: cell-free assay; method: competition with immobilised ligand; tested at: 1 µM; quantity: remaining binding
SMILES: CS(=O)(=O)NCC[C@H](NC(=O)c1cncc2c1cnn2-c1ccc(F)cc1)c1ccnc(S(C)(=O)=O)c1
PRKD3 (Homo sapiens, UniProt O94806): 92%
Ribosomal protein S6 kinase alpha-6, C-terminal kinase domain (RPS6KA6, Homo sapiens, UniProt Q9UK32): 100%
Receptor-type tyrosine-protein kinase FLT3, autoinhibited (FLT3, Homo sapiens, UniProt P36888): 100%

Sample 3 — cell line: HaCaT; tested at: 100 µM; time: 36 h; quantity: viability
NC(=O)c1ncn([C@@H]2O[C@H](CO)[C@@H](O)[C@H]2O)c1O: 92.7%
CC1=C(C(=O)OC(C)C)C(c2cccc([N+](=O)[O-])c2)C(C(=O)OC2CN(C(c3ccccc3)c3ccccc3)C2)=C(N)N1 (stereo not shown): 12.5%
COc1ccc(CN=c2[nH]c(N3CCC[C@H]3CO)ncc2C(=O)NCc2ncccn2)cc1Cl: 54.3%
CC1(C)C(C=C(Cl)Cl)C1C(=O)OCc1cccc(Oc2ccccc2)c1 (stereo not shown): 98%

Sample 4 — action: inhibitor; tested at: 10 µM; relative to: control; quantity: remaining activity
Target: Diamine acetyltransferase 1 (Homo sapiens, UniProt P21673)
Target sequence (P21673 1-171): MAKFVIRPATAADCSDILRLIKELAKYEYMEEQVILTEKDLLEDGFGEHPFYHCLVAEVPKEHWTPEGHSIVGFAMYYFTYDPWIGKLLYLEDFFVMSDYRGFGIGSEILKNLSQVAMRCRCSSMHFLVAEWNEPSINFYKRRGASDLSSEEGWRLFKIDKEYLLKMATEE
COc1cc(C(C)=O)ccc1O: 100%
O=C1c2ccccc2C(=O)c2c(O)ccc(O)c21: 88.4%
CCCCCCCCCCC(=O)O: 114%
COc1ccc(C[C@@H]2c3cc(Oc4cc(C[C@@H]5c6cc(OC)c(OC)cc6CCN5C)ccc4O)c(OC)cc3CCN2C)cc1: 99.9%
CCCCCC(C)O (stereo not shown): 105%
O=C1C[C@@H](c2ccccc2)Oc2cc(O)cc(O)c21: 92.6%

Sample 5 — read-out: enzyme activity; action: inhibitor; tested at: 0.5 µM; relative to: control; quantity: remaining activity
Target: Dual specificity protein kinase TTK (TTK, Homo sapiens, UniProt P33981)
Construct (P33981 1-857): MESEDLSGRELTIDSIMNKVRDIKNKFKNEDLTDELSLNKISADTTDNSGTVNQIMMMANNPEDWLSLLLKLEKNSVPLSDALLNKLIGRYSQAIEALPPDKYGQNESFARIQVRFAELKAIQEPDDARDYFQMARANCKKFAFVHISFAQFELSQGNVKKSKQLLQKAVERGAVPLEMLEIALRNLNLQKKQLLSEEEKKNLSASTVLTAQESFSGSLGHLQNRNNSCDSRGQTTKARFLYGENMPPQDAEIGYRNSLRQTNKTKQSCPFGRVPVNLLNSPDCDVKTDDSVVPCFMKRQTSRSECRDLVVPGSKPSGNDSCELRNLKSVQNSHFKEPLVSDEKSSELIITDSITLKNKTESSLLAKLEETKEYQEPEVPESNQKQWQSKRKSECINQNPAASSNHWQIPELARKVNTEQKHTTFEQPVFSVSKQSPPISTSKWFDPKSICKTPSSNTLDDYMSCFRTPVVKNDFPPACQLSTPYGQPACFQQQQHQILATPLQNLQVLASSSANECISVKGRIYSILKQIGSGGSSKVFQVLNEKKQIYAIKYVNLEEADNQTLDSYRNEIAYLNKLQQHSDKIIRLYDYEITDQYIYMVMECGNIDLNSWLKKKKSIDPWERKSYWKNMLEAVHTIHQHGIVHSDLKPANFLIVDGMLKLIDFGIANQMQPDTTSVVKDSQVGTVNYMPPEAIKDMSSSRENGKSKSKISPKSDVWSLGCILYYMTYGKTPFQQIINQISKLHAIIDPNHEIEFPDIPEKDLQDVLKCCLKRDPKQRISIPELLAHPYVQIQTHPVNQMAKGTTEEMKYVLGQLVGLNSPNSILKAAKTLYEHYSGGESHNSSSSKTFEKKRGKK
Cc1cccc(-c2[nH]c(C(C)(C)C)nc2-c2ccc3c(c2)OCO3)n1: 89%
CN(C)c1ccc(C=C2C(=O)Nc3ccccc32)cc1: 99.7%
COc1cc2nccc(Oc3ccc(NC(=S)NC(=O)c4ccccc4C)cc3)c2cc1OC: 101%
CCOC(=O)c1c(C)[nH]c(/C=C2\C(=O)Nc3ccccc32)c1C: 96.6%
CNC(=O)c1cc(Oc2ccc(NC(=O)Nc3ccc(Cl)c(C(F)(F)F)c3)cc2)ccn1: 104%
OCC(O)CCON=C1C(c2c(O)[nH]c3ccccc23)=Nc2ccccc21 (stereo not shown): 46.1%
Cn1sc(=O)n(Cc2ccccc2)c1=O: 101%
CC(C)[C@H](CO)Nc1nc(Nc2cc(N)cc(Cl)c2)c2ncn(C(C)C)c2n1: 84.5%
O=C1NC(=O)C(c2cn(CCCO)c3ncccc23)=C1c1cnccn1: 94.5%
COc1ccc(C(=O)Nc2sc3c(c2C(N)=O)CCCC3)cc1OC: 95.6%
N#CC(C#N)=C(N)/C(C#N)=C/c1ccc(O)cc1: 94.4%
Nc1[nH]nc2nc3ccccc3nc12: 102%
Oc1ccc(-c2nc(-c3ccncc3)c(-c3ccc(F)cc3)[nH]2)cc1: 103%
COc1ccc(OC)c2c(=S)c3ccccc3[nH]c12: 99.1%
Cc1ccc(Nc2nccc(N(C)c3ccc4c(C)n(C)nc4c3)n2)cc1S(N)(=O)=O: 73.4%

Repeated from above (sample 4):
CCCCCC(C)O (stereo not shown): 105%
O=C1C[C@@H](c2ccccc2)Oc2cc(O)cc(O)c21: 92.6%
